Measured values of several laboratories.
Each line is one published result; not all experiments were run side by side.
Cell line: A549/ATCC

`COC(=O)/C=C1\C(=O)C=C2C3CC4CC(CCC4(C)N21)C3(C)NC(C)=O` (stereo not drawn) gave an IC50 of 33.1 µM (cell growth; NCI screen).
`COc1ccc(-c2ccc(-c3ccc(C(=N)N)nc3)s2)cc1Cl` gave a GI50 of 2.01 µM (NCI five-dose screen).
For `Cn1cncc1C1=CN(c2ncnc3[nH]cnc23)CCS1`, the GI50 was 29.5 µM (lung cancer cell line).
The TGI of `CCCc1n(Cc2ccc3ccccc3n2)cc[n+]1Cc1ccc2ccccc2n1` is reported as > 100 µM (NCI60 five-dose).
The growth percent of `O=C(Nc1nnc2n3c(nc(-c4ccc(Cl)cc4)c1-2)SCC3=O)c1ccccc1` is reported as 108% (NCI60 SRB; 10 µM).
`Cc1cc(C)n(C(=S)[S][Au][PH](CCCCCC[PH]([Au][S]C(=S)n2nc(C)cc2C)(c2ccccc2)c2ccccc2)(c2ccccc2)c2ccccc2)n1` has a log TGI of > -4 log10 M (cell growth, NCI-60 screen; non-small cell lung cancer).
With `O=C(Nc1nnc2n3c(Cc4ccccc4)n[nH]c3nc(-c3ccc(Cl)cc3)c1-2)c1ccccc1` the growth percent was 103% (NCI60 SRB; 10 µM).
With `c1ccc2cc(Cn3cc[n+](Cc4ccc5ccccc5c4)c3)ccc2c1` the TGI was 22.9 µM (NCI60 five-dose).
For `S=C([S][Au-][P+](CCCCCC[P+]([Au-][S]C(=S)n1cccn1)(c1ccccc1)c1ccccc1)(c1ccccc1)c1ccccc1)n1cccn1`, the GI50 was 0.382 µM (cell growth, NCI-60 screen; non-small cell lung cancer).
With `CCCCc1n(Cc2ccc3ccccc3n2)cc[n+]1Cc1ccc2ccccc2n1` the TGI was 18.5 µM (NCI60 five-dose).
`O=C(Nc1nnc2n3c(=S)[nH][nH]c3nc(-c3ccc(Cl)cc3)c1-2)c1ccccc1` has a growth percent of 96.5% (NCI60 SRB; 10 µM).
The GI50 of `COc1ccc(-c2ccc(-c3ccc(C(=N)N)nc3)s2)cc1` is reported as 1.84 µM (NCI five-dose screen).

Excerpt of the above:
The TGI of `CCCc1n(Cc2ccc3ccccc3n2)cc[n+]1Cc1ccc2ccccc2n1` is reported as > 100 µM (NCI60 five-dose).
